Results gathered from unrelated publications.
Every numbered part comes from another study and shows a few of its results, in no order.

Block 1
Target: Prothrombin, mature alpha-thrombin (F2, Homo sapiens, UniProt P00734)
Technique: aptamer microarray, sandwich
Molecule type: DNA with 2'F-ANA
Medium: in vitro
Concentration: 200 nM
Notes: whole 15-mer aptamer, many near background
Added: Cy3 exosite-II aptamer, 400 nM
Reading: higher = stronger binding
Oligonucleotide | mean fluorescence intensity [a.u.]
GGTTGGTGTGGTTGG (2'F-ANA at 1 2 3 4 5 7 8 9 11 12 13 14) | 53.6
GGTTGGTGTGGTTGG (2'F-ANA at 1 3 5 7 8 9 11 15) | 138
GGTTGGTGTGGTTGG (2'F-ANA at 1 2 4 7 10 11 12 14) | 54.8

Block 2
Target: Histone acetyltransferase KAT6A, both winged helices, GST fusion (KAT6A, Homo sapiens, UniProt Q92794, residues 1-181)
Technique: protein binding microarray
Molecule type: double-stranded DNA, one strand shown
Medium: in vitro
Concentration: not given
Notes: 8-mer, flanks averaged, mean of 2 arrays, mostly near background
Baseline: not given
Reading: higher = stronger binding
Target sequence (chain): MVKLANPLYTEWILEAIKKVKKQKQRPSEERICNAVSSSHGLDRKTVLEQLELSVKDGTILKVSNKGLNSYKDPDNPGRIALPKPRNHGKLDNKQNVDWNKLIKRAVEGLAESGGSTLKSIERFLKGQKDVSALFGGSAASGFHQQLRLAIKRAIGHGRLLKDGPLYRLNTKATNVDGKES
Oligonucleotide | E-score
AGGCCGCA | 0.0918
CCCGGGAA | 0.254
GAAAGAAA | -0.0812

Further values, each from its own experiment
FOXA2 forkhead domain: Hepatocyte nuclear factor 3-beta, forkhead domain (FOXA2, Homo sapiens, UniProt Q9Y261, residues 142-269)
Sequence of UniProt Q9Y261 (142-269, looked up): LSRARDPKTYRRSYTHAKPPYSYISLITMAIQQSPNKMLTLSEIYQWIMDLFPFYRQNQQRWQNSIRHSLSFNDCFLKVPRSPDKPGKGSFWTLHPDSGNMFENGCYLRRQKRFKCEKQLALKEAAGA
Molecule | target | assay | system | setting | scale | quantity | result
AAGTATGT | FOXA2 forkhead domain | protein-binding microarray | double-stranded DNA, one strand shown, in vitro | not given, k-mer, scored over probes, only values ≥0.25 | higher = stronger binding | E-score | 0.317
PhoQ, residues 284 288 289 292 302 303 AANNSF | PhoP, residues 12 14 15 18 19 IQSYL (Escherichia coli, UniProt P23836) | Sort-seq, item: YFP reporter | E. coli | PhoQ-PhoP variant library, added: 10 µM Mg2+ | baseline: high Mg2+ state, higher = stronger signaling | fold induction | 28.6
ATAGACAA | FOXA2 forkhead domain | protein-binding microarray | double-stranded DNA, one strand shown, in vitro | not given, k-mer, scored over probes, only values ≥0.25 | higher = stronger binding | E-score | 0.323
TAACAGTA | FOXA2 forkhead domain | protein-binding microarray | double-stranded DNA, one strand shown, in vitro | not given, k-mer, scored over probes, only values ≥0.25 | higher = stronger binding | E-score | 0.293
